Published values of several laboratories.
± marks the error that the study gave.
UniProt Q96S44, sequence (whole entry, looked up): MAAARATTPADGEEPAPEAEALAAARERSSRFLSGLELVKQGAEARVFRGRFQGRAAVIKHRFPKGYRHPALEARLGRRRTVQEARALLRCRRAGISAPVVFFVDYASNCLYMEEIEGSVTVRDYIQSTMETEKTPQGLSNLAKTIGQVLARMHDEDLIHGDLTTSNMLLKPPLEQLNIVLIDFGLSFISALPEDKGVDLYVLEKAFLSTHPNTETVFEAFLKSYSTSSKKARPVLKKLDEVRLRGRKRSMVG

| Structure (SMILES) | target or system | assay | system | setting | scale | quantity | value |
| --- | --- | --- | --- | --- | --- | --- | --- |
| Cc1cc(C(=O)NC(C)(C)COc2cccc3c2C(N)=NS(=O)(=O)N3)cc(C)n1 | Escherichia coli | Ames test, initial | WP2 uvrA | 15.0 µg/plate | reference: solvent control | revertant ratio | 0.9 |
| Fc1ccc(C2=CCNCC2)cc1 | Salmonella typhimurium | SOS/umu test | TA1535/pSK1002 | 0.031 mg/mL, 4 h, without S9, full range | – | survival | 96.3% |
| O=C(NC(=O)c1ccccc1Cl)Nc1ccc(Cl)cc1 | Plutella xylostella | leaf dipping | – | 200 mg/L, 96 h | – | mortality | 66.2 ± 1.3% |
| C[C@H]1CN(c2n[nH]c3nc(N[C@H]4CC[C@H](NS(=O)(=O)CCC(F)(F)F)CC4)ncc23)CCO1 | TP53RK (Homo sapiens, UniProt Q96S44) | biochemical | – | – | – | IC50 | ≥ 20 µM |
| NCC(=O)O | Bacillus subtilis | – | NCIB3610 | – | – | half-life | 20.3 h |
| [Cl-].[Cl-].[Pt+2].[Ru+2].c1ccc(-c2nc3ccccc3nc2-c2ccccn2)nc1.c1cnc2c(c1)ccc1cccnc12.c1cnc2c(c1)ccc1cccnc12 | Danio rerio | – | embryos | 90 µM, 72 h | – | hatching rate | 3.33 ± 1.1% |
| O=[N+]([O-])c1ccc(N2CCN(CCC(O)c3ccc(F)cc3)CC2)c(C(F)(F)F)c1 (stereo not shown) | Salmonella typhimurium | genotoxicity, SOS/umu test | TA1535/pSK1002 | 0.008 mg/mL, 4 h, with S9, full range | – | induction factor | 1.2 |
| CN1CCN(S(=O)(=O)c2ccc(-c3ccc4c(Nc5ccc(OCc6cccc(F)c6)c(Cl)c5)ccnc4c3)cc2)CC1 | Trypanosoma cruzi | – | NIH 3T3, 2% FBS medium | 96 h | reference: NIH 3T3 TC50 over T. cruzi EC50 | selectivity ratio | 20 |
| [Cl-].[Cl-].[Pt+2].[Ru+2].c1ccc(-c2nccnc2-c2ccccn2)nc1.c1cnc2c(c1)ccc1cccnc12.c1cnc2c(c1)ccc1cccnc12 | Danio rerio | – | embryos | 90 µM, 0 h | – | survival rate | 100% |
| COc1cccc(-c2n[nH]c(SCc3ccccn3)n2)c1OC | Escherichia coli | Ames test, plate incorporation | WP2 uvrA | 0.25 mg/plate, with rat liver S9 | – | revertant colonies per plate | 41 |
| N#C[C@@]1(n2ccc(N)nc2=O)O[C@H](CO)[C@@H](O)[C@H]1O | Salmonella typhimurium | – | TA1535 | 50 µM, without S9 | – | viability | 102% |
| CC(=O)N1CCC(C(=O)N2CCN3C(=O)c4cc(-c5ccccc5)ccc4NC(=O)C3C2)CC1 (stereo not shown) | Escherichia coli | – | WP2 uvrA | 15.8 µg/plate, without S9 | – | revertants per plate | 18.5 |
| CC1(F)CN(C(=O)Cn2c(=O)c(C(=O)NCc3ccc(Cl)cc3)cc3nc(N4CCNC4=O)cnc32)C1 | human cytomegalovirus | – | MRC-5, Davis | – | reference: CC50 over EC50 | selectivity ratio | > 253 |
| [Cl-].[Cl-].[Pt+2].[Ru+2].c1ccc(-c2nc3cc4ccccc4cc3nc2-c2ccccn2)nc1.c1cnc2c(c1)ccc1cccnc12.c1cnc2c(c1)ccc1cccnc12 | Danio rerio | – | embryos | 45 µM, 96 h | – | hatching rate | 40 ± 3.8% |
| CN1CCCN(S(=O)(=O)c2ccc(-c3ccc4ncnc(Nc5ccc(OCc6cccc(F)c6)c(Cl)c5)c4c3)cc2)CC1 | Trypanosoma cruzi | – | NIH 3T3, 2% FBS medium | 96 h | reference: NIH 3T3 TC50 over T. cruzi EC50 | selectivity ratio | 85.6 |
| OC(CCN1CC=C(c2ccc(F)cc2)CC1)c1ccc(F)c2ccccc12 (stereo not shown) | Salmonella typhimurium | SOS/umu test | TA1535/pSK1002 | 0.016 mg/mL, 4 h, with S9, lower range | – | survival | 115% |
| CN1CCCN(S(=O)(=O)c2ccc(-c3ccc4nccc(Nc5ccc(OCc6cccc(F)c6)c(Cl)c5)c4c3)cc2)CC1 | Trypanosoma cruzi | – | NIH 3T3, 2% FBS medium | 96 h | reference: NIH 3T3 TC50 over T. cruzi EC50 | selectivity ratio | 19 |
| Cn1c(Cn2ccc(C(F)(F)F)c(Oc3cc(Cl)cc(C#N)c3)c2=O)n[nH]c1=O | HIV-1 | MTT | MT4, RT L100I/V179D/Y181C mutant | – | reference: CC50 over EC50 | selectivity index | > 1540 |
| CN1CCCN(S(=O)(=O)c2ccc(-c3ccc4ncc(C#N)c(Nc5ccc(OCc6cccc(F)c6)c(Cl)c5)c4c3)cc2)CC1 | Trypanosoma cruzi | – | NIH 3T3, 2% FBS medium | 96 h | reference: NIH 3T3 TC50 over T. cruzi EC50 | selectivity ratio | 262 |
| C[C@H]1C[C@@H](N2C(=N)N[C@](C)(c3cccc(Nc4ccc(C5CC5)nc4)c3Cl)CC2=O)CCO1 | Salmonella typhimurium, Escherichia coli | – | TA98, TA100, TA1535, TA97a, WP2 uvrA pKM101 | concentration not given, with and without S9 | – | mutagenicity | negative |
| Cc1ccnc2c1NC(=O)c1cccnc1N2C1CC1 | HIV-1 | – | MT4, IIIB wild type | – | reference: CC50 over EC50 | selectivity index | > 106 |
| CN1CCN(c2ccc(Nc3nccc(-c4ccncc4)n3)cc2C(F)(F)F)CC1 | Danio rerio | – | embryos | 5 µM, 5 days | – | toxicity | 30 ± 16% |
| CCCCc1ccc(CNc2nc(N(C)C)nc(N(C)C)c2/N=N/c2ccc(Cl)cc2)cc1 | Plutella xylostella | leaf dipping | – | 50 mg/L, 96 h | – | mortality | 83.3 ± 10% |
| Fc1cccc(COc2ccc(Nc3ccnc4cc(-c5cccc(N6CCOCC6)c5)ccc34)cc2Cl)c1 | Trypanosoma cruzi | – | NIH 3T3, 2% FBS medium | 96 h | reference: NIH 3T3 TC50 over T. cruzi EC50 | selectivity ratio | 4 |
| Cc1cc(C#N)cc(C)c1Oc1nc(Nc2ccc(C#N)cc2)nc(N)c1Br | HIV-1 | MTT | MT4, RT A98G/V106I/V179D/Y181C/G333E mutant | – | reference: CC50 over EC50 | selectivity index | > 6 |
